Results gathered from unrelated publications.
Numbered parts are unrelated; each lists some results of a single study. Changes are numbered by the printed parent chain.

Sample 1
Target: Prothrombin, mature alpha-thrombin (F2, Homo sapiens, UniProt P00734)
Method: aptamer microarray, sandwich
Form: DNA with 2'F-ANA
Matrix: in vitro
Concentration: 200 nM
Notes: whole 15-mer aptamer, many near background
Added: Cy3 exosite-II aptamer, 400 nM
Reading: higher = stronger binding
Measurement: mean fluorescence intensity
Strand: GGTTGGTGTGGTTGG
2'F-ANA at 2 3 4 5 9 11 13: 61.6 a.u.
2'F-ANA at 1 5 6 8 11 12 14 15: 47.8 a.u.
2'F-ANA at 3 4 5 8 9 12: 234 a.u.
2'F-ANA at 1 2 3 4 5 6 9 10 15: 138 a.u.
2'F-ANA at 1 3 6 7 11 13: 188 a.u.
2'F-ANA at 2 3 4 5 6 8 9 12 14 15: 60.7 a.u.
2'F-ANA at 1 2 4 5 6 8 10 11 12 13 15: 51.7 a.u.
2'F-ANA at 1 4 5 9 15: 56.7 a.u.
2'F-ANA at 2 4 5 7 8 9 10 11 14 15: 46.5 a.u.
2'F-ANA at 2 3 4 5 6 7 8 10 12 14: 51.8 a.u.
2'F-ANA at 1 8 9: 217 a.u.
2'F-ANA at 2 9 10 11 12: 162 a.u.
2'F-ANA at 1 4 8 9 10 12 15: 58.3 a.u.
2'F-ANA at 2 6 7 8 9 10 14: 92.7 a.u.
2'F-ANA at 1 2 6 7 8 10 13: 55.1 a.u.
2'F-ANA at 2 3 4 7 8 10 11 12 14: 192 a.u.
2'F-ANA at 1 2 4 5 8 10 11 12: 45.4 a.u.
2'F-ANA at 2 5 8 11 12 14 15: 53.6 a.u.
2'F-ANA at 3 4 5 6 7 10 11 12 15: 106 a.u.
2'F-ANA at 3 4 8 9 10 11 12 15: 303 a.u.

Sample 2
Target: RNA binding protein fox-1 homolog 2, RRM domain, GST-SBP tag (RBFOX2, Homo sapiens, UniProt O43251-10, residues 100-194)
Method: RNA Bind-n-Seq
Form: RNA
Matrix: in vitro
Concentration: 365 nM
Notes: natural RNA segment, single round, ends assumed
Relative to: no-protein control
Reading: higher = stronger binding
Measurement: RBNS enrichment (R)
Shared flanks, not repeated: GGGAGUUCUACAGUCCGACGAUC … UGGAAUUCUCGGGUGCCAA
Construct (chain): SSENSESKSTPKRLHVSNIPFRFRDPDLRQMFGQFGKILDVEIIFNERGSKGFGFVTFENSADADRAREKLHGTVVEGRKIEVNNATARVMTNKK
GGAAAAUUUGGGAGAAAUCUAAUCAUGCCUAUUAAGGAUGUAAGACAUUACAGCCUUAGAAGAAAGAUUGUGAAAAGCUGGGGAGAAAAUGCUUAAGGACAUGCUAGGGG: 2.42
AAUUACCUCCCCCUGGGUCUGUCCCACAACACGUGGGAAUUCUGGGAGAUACAAUUCAAGUUGAGAUUUGUGGGGGGACACAACCAAACCAUAUCAGCAUCCUUUCAAGA: 0.541
AAGCGUUGUUAGGUUUUUGUGUAAGAUUCUUGCUGUAGCGUGGAUAGCUGUGAUUGGUGAGUCAACCGUCUGUGGCUACCAGUUACACUGAGAUUGUAACAGCAUUUUUA: 0.453
UUUAUUUUAAGGGUUAAAUCACUUUUGCUUGUGUUUAUUACUGCUUGAGGUUGAGCCUUUUUGAGUAUUUAAGAUAUAUAUACCAACGAAACUAUUCUCGCAAGGAAAAC: 0.502
ACCUGGGGAGGCCAGGUCACUGCACUGGGAGGUCCUGGCUGCUGCGAAGCUGGAGGAGGACUGCGUGGGCUGAGAUGCCACCCUUUGAAGGGUGAACAGCAUGGCGGCAU: 1.84
UUGGAAUGUGACACAGCCUUUUUGAUCAUUUCUUUGAUGUGAAAAGCAUCUUUUGGUUAUCAGUUAAAUUGAGGUGGACAUUAUUUCCCCAAUUUCACAACAGGAUUCAU: 0.307
AGUGAUGGCUCACUCAGACUGUCCUGGCAGCCAAAGUGACUUUCUGGAGCUCUGCUUGCCUGUCCCCACCUCGCUGGAAACCAUCUCGCCAUUAGCGCAACUGAUUUCCC: 0.305
UCAAUCUCCUUCUAUCCCUCCUCCCCAAGCAGUCAGGUUAUGGGCUAUGGCCCUAUGUCACUCUGCCCUCUUGGUUUCUGCUGCCCUACGGCAGCUGGUGGAAUCUAUUG: 0.198
CAUUUUGUUUCUUGUACAAUAUCUCAUGUGACCCAAACUUGAGACUCCAAACAGUACCUUUGCUUUGUUUGUACAAAAAUGAAGACCUAUAGCCAACACAAAGCAAAUGC: 0.573
CGGCCCUCACAUCUGAAACUGGUUGCCGAGAGCCCUGAGCCAAGGCAAGGAUUUGCCAAAAAUGUUCUGGGGGCCCAGCAAAUGCAGGAGCCGACCUGGGGCUGCACAUC: 0.315
UCCACACUAUAAAUGAUAUGACUACUGUUUGGGGUUUCUGGGCCCCCAUCCGUGUACGUAUGUGGCAUUUCCAGGUAUGACUGAGUGUGAGAGACAUGUCAGAGGCUCUU: 0.8
AUCAAGGAUCUCCACAGAGGUGACUGUUGCCUAUCCACAACGACACUAGUGAUCACUCUUCAGAGAGUGACUCUCGGGAAAACUGAGAGAAAUGGCUUCCGGAUGAGAUG: 0.226

Sample 3
Target: CCNF, cyclin fold, Cln2 fusion (human)
Method: yeast growth competition, sequencing
Matrix: yeast
Notes: strong parent motif
Relative to: not given
Reading: higher = stronger binding
Measurement: normalised enrichment score
Starting sequence: RBL2 docking peptide (human); STTRRRLFVENDS; partner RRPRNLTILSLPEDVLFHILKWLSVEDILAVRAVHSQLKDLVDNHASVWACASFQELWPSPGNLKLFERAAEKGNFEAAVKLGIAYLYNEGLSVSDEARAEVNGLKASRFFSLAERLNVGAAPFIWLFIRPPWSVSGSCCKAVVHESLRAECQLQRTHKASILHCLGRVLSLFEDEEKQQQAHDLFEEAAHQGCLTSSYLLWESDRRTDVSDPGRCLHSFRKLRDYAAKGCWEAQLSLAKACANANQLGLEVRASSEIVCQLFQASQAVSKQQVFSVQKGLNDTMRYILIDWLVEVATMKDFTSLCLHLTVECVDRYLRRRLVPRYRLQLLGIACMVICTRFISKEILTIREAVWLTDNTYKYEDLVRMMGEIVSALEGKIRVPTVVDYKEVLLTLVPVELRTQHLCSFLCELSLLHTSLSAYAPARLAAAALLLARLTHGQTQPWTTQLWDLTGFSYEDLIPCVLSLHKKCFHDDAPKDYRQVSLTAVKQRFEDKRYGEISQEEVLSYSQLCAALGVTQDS
D12M: 8.04
R4A: 7.29
N11G: 9.08
R5W: 0.613
D12C: 8.06
N11S: 8.05
L7N: -0.415
F8Q: 3.63
S1K: 6.75
S13W: 7.7
V9I: 7.66
L7A: 0.905
E10V: 7.37
T2G: 8.89
L7Y: 0.567
S13A: 8.4
V9S: 8.01
V9K: 8.5
F8C: 1.32
R4W: 3.6
V9E: 7.35
V9H: 8.31
F8W: 3.95

Sample 4
Target: Interferon regulatory factor 7, full length, phosphomimetic (IRF7, Homo sapiens, UniProt Q92985, residues 1-503, S101K/S471D/S472D/S475D/S476D/S477D/S483D/S484D/S487D)
Sequence of UniProt Q92985 (whole entry, unmodified, looked up): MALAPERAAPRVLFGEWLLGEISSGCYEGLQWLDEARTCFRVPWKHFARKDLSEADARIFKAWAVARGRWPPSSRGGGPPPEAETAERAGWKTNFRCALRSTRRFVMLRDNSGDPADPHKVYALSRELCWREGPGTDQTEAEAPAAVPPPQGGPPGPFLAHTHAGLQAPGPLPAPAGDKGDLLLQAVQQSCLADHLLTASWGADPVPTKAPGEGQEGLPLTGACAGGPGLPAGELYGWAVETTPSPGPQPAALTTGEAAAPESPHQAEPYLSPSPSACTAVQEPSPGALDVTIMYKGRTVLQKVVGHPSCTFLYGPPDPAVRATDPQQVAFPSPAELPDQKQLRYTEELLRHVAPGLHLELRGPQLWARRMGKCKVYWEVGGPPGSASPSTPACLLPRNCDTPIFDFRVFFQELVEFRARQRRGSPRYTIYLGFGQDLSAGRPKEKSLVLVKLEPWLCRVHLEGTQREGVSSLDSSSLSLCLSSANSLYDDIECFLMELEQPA
Method: protein-binding microarray
Form: double-stranded DNA, one strand shown
Matrix: in vitro
Concentration: 250 nM
Notes: 60-bp whole probe
Added: salmon DNA 0.4 mg/ml
Relative to: random background probes
Reading: higher = stronger binding
Measurement: log fluorescence
Shared flanks, not repeated: GCCTAGCAC … GTCTTGATTCGCTTGACGCTGCTG
TGCATCGTAAGCAAAAATGAGTGCTAG: -0.0263 z-score
GAATCTCCCATTATATTTTAGTGCTAG: 0.952 z-score
TACTTTCTACTTCTCTTTTTGTGCTAG: 3.89 z-score
TGAGGTATCCTTTTCCTTTAGTGCTAG: 1.05 z-score
GACGATCTCACTCTCGAGACGTGCTAG: 0.211 z-score
TTAGATATGGGGTATCGATTAGTGCTA: 0.462 z-score
TCAGTTTTCTTTTCCATTTTGTGCTAG: 5.18 z-score
TCAAGTCCCCTCTTCTGACTGTGCTAG: 0.691 z-score
GACGGTTCCGGCTTCGGGACGTGCTAG: 0.918 z-score
GTGTTTTGCCCTATTTAAGAGTGCTAG: 2.31 z-score
GACGGACTGGGGTATCGGGGCGTGCTA: -0.595 z-score
TTAGAACTGACACTGGATTAGTGCTAG: -0.306 z-score
TTAGGTCTCCTACTGCTTAAGTGCTAG: -0.171 z-score
ACCCTCATTCTACTATCGATGTGCTAG: 0.717 z-score
TTAGGTATCCTTTTCCTATAGTGCTAG: 2.04 z-score
TCACATCTCGGAGATCTCACTGTGCTA: 0.227 z-score
TCATTTTTCTAATTGAAACTGTGCTAG: 2.95 z-score
TCATAAATATCTTTGTTACTGTGCTAG: 0.126 z-score
TGTCTGTCTGTCACCCGGACGTGCTAG: 0.223 z-score
GACGGACTGGGACAGGGGACGTGCTAG: -0.548 z-score
TCACCTTAGGTTTTCTGACTGTGCTAG: 0.564 z-score
TTAGGTATCCCTTTCCTTTAGTGCTAG: 1.2 z-score
TTCACTTTCCAAAGCGTGAGGTGCTAG: 0.82 z-score
CTAGGTATCGGACTGGGTTAGTGCTAG: 0.739 z-score

For quick reference, copied from above (sample 3):
S13A: 8.4
V9S: 8.01
V9K: 8.5
F8C: 1.32
R4W: 3.6
V9E: 7.35
V9H: 8.31
